Results gathered from unrelated publications.
Lines come from different studies, so protocols differ.
Sequence of UniProt P16591 (whole entry, looked up): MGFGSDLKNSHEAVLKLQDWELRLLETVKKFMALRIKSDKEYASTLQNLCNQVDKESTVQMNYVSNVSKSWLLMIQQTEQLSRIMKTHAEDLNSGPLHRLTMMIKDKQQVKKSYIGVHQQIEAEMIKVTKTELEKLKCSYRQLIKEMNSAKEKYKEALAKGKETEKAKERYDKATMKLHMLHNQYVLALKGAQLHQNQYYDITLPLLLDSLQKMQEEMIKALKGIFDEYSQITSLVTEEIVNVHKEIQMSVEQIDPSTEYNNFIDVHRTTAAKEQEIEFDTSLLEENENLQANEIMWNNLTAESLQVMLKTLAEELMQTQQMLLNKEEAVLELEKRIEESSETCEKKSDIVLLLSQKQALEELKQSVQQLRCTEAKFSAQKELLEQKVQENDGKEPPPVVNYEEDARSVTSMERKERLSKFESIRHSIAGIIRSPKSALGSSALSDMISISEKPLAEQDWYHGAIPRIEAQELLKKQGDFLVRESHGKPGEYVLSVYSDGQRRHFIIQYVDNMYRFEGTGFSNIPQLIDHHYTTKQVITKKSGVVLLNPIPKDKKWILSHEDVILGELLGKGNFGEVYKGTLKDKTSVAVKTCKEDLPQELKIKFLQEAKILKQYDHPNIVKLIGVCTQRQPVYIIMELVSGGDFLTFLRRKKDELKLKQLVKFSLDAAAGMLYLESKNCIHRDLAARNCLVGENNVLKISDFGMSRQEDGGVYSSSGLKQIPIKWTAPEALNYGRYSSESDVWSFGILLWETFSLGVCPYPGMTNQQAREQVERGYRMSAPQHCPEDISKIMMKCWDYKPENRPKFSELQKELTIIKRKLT
Sequence of UniProt P49840 (whole entry, looked up): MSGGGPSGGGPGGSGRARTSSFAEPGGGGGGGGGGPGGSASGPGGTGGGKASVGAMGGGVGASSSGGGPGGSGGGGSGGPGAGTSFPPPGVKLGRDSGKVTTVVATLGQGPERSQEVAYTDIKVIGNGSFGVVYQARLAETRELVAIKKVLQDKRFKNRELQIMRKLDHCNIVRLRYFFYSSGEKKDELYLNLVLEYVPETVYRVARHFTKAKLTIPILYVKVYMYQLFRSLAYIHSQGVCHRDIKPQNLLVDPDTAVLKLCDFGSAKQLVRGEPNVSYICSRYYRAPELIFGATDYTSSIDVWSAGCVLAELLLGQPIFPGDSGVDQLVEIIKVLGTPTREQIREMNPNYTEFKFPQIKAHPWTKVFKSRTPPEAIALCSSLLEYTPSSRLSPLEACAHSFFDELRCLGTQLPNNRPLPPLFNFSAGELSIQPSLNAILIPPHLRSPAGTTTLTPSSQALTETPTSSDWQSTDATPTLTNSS

The EC50 of `CNc1ncc2c(/C=C/C(=O)N3CCC(OC)CC3)nn(CC3CCCC3)c2n1` is reported as 7.39 µM (FLO-1; cell growth or viability, resazurin; 5 days).
The IC50 of `COc1cc([C@@H]2c3cc4c(cc3[C@@H](O[C@@H]3O[C@@H]5CO[C@@H](C)O[C@H]5[C@H](O)[C@H]3O)[C@H]3COC(=O)[C@H]23)OCO4)cc(OC)c1O` is reported as 0.012 µM (MB002; cell growth or viability; 7 days).
For `Cc1c(Cc2ccccc2)c(=O)oc2c(C)c(OCC(=O)NN=Cc3ccco3)ccc12`, the viability was 27% (PC-3; cell growth or viability, MTT; 31.25 µg/mL).
`CC(=NNC(=O)c1ccccc1Cl)c1ccc(Nc2nnc(-c3ccc(Cl)cc3)c3ccccc23)cc1` gave a viability of 62.1% (MCF7; cell growth or viability, MTT; 1.25 µM, 24 h).
`Cc1noc(NS(=O)(=O)c2ccc(N=NN(O)c3ccccc3)cc2)c1C` has an inhibition of 57.4% (ABTS scavenging; 120 µg/mL).
`C=CC(=O)N1CCC(COCC(=O)N2CCN(c3nc(-c4cnc(N)nc4C(F)F)nc(N4CCOC[C@@H]4C)n3)CC2)CC1` has a remaining binding of 96% (Tyrosine-protein kinase Fer (FER, Homo sapiens, UniProt P16591); binding, competition with immobilised ligand; 1 µM).
The IC50 of `CC(=O)Nc1cccc(-n2c(=O)n(C3CC3)c(=O)c3c(Nc4ccc(I)cc4F)n(C)c(=O)c(C)c32)c1` is reported as > 10 µM (MB002; cell growth or viability; 7 days).
With `CC(=NNC(=O)c1ccccc1O)c1ccc(Nc2nnc(-c3ccc(Cl)cc3)c3ccccc23)cc1` the cell death was 0.708% (MCF7; cell growth or viability, MTT; 0.312 µM).
`COc1ccc(CNC[C@](O)(COCc2ccc(F)cc2)[C@@H]2CC[C@@H](C)C[C@H]2OCc2ccc(F)cc2)cc1` has an inhibition of 95.4% (A2780; cell growth or viability, MTT; 30 µM, 72 h).
For `CCNC(=S)NNC(=O)COc1ccc2c(C)c(CC)c(=O)oc2c1C`, the viability was 55.4% (PC-3; cell growth or viability, MTT; 125 µg/mL).
The viability of `CC(=NNC(=S)Nc1ccccc1)c1ccc(Nc2nnc(-c3ccc(Cl)cc3)c3ccccc23)cc1` is reported as 57% (MCF7; cell growth or viability, MTT; 0.625 µM, 24 h).
With `Cc1[nH]c(C)c(-c2ccc(Oc3ccc(F)cc3)cc2)c(=O)c1Cl` the IC50 was > 10 µM (HEK293; cell growth or viability).
For `COc1cc(-c2cncc3c2CN(C)Cc2cc(N4CCNCC4)ccc2-3)cc(OC)c1OC`, the remaining activity was 101% (Glycogen synthase kinase-3 alpha (GSK3A, Homo sapiens, UniProt P49840); enzyme activity, inhibitor; 1 µM).
For `COc1ccc(CNC[C@](O)(COCc2ccc(OC)cc2)[C@@H]2CC[C@@H](C)C[C@H]2OCc2ccc(OC)cc2)cc1`, the inhibition was 99.7% (A2780; cell growth or viability, MTT; 30 µM, 72 h).
`Cc1cnc(Cn2nc(-c3ccc(CO)o3)c3ccccc32)s1` gave an inhibition of 81% (RBE; cell growth or viability, ATP luminescence; 46 µM, 72 h).
With `Cc1c(Cc2ccccc2)c(=O)oc2c(C)c(OCC(=O)NN=Cc3ccc([N+](=O)[O-])cc3)ccc12` the viability was 16.8% (PC-3; cell growth or viability, MTT; 62.5 µg/mL).
The EC50 of `CNc1ncc2c(/C=C/C(=O)N3CCC(OC)CC3)nn(Cc3ccccc3OC)c2n1` is reported as 6.91 µM (FLO-1; cell growth or viability, resazurin; 5 days).
For `CC(=NNC(=O)c1ccccc1Br)c1ccc(Nc2nnc(-c3ccc(Cl)cc3)c3ccccc23)cc1`, the viability was 93.4% (MCF7; cell growth or viability, MTT; 0.312 µM, 24 h).
With `CN(C)CCNC(=O)c1ccc(-c2nc3ccc4[nH]ncc4c3c3c2CCCCC3)cc1` the GI50 was 0.258 µM (Kasumi 1; cell growth or viability; 72 h).
`CC(=NNC(=O)c1ccc(N)cc1)c1ccc(Nc2nnc(-c3ccc(Cl)cc3)c3ccccc23)cc1` has a cell death of 94.2% (MCF7; cell growth or viability, MTT; 5 µM).
With `OCc1ncc(-c2nn(Cc3ccccc3)c3ccccc23)o1` the inhibition was 21% (RBE; cell growth or viability, ATP luminescence; 46 µM, 72 h).
`CCCCc1ccc(-c2ccc(-c3c(C)[nH]c(C)c(Br)c3=O)cn2)cc1` has an IC50 of > 10 µM (HEK293; cell growth or viability).
`CN(O)N=Nc1ccc(S(=O)(=O)Nc2nccs2)cc1` gave an inhibition of 29.7% (ABTS scavenging; 20 µg/mL).
The viability of `O=C(Nc1ccc(Oc2nnc(-c3ccc(Cl)cc3)c3ccccc23)cc1)c1cccc([N+](=O)[O-])c1` is reported as 7.97% (MCF7; cell growth or viability, MTT; 10 µM, 24 h).
`COc1cccc2c(NN=Cc3cccc(F)c3)ccnc12` gave an IC50 of > 10 µM (HEK293; cell growth or viability).
With `NC(=S)NN=C(CS(=O)(=O)c1ccccc1)c1ccc(F)cc1` the viability was 38.5% (WM 266-4; cell growth or viability, MTT; 6.3 µM, 48 h).
For `S=C(Nc1ccccc1)Nc1ccc(Oc2nnc(-c3ccc(Cl)cc3)c3ccccc23)cc1`, the viability was 99.7% (MCF7; cell growth or viability, MTT; 0.625 µM, 24 h).
`Cc1[nH]c(C)c(C2CCC(c3ccc(Cl)cc3)CC2)c(=O)c1Cl` (stereo not shown) gave an IC50 of > 10 µM (HEK293; cell growth or viability).

Repeated from above:
The EC50 of `CNc1ncc2c(/C=C/C(=O)N3CCC(OC)CC3)nn(Cc3ccccc3OC)c2n1` is reported as 6.91 µM (FLO-1; cell growth or viability, resazurin; 5 days).
For `CC(=NNC(=O)c1ccccc1Br)c1ccc(Nc2nnc(-c3ccc(Cl)cc3)c3ccccc23)cc1`, the viability was 93.4% (MCF7; cell growth or viability, MTT; 0.312 µM, 24 h).
With `CN(C)CCNC(=O)c1ccc(-c2nc3ccc4[nH]ncc4c3c3c2CCCCC3)cc1` the GI50 was 0.258 µM (Kasumi 1; cell growth or viability; 72 h).
`CC(=NNC(=O)c1ccc(N)cc1)c1ccc(Nc2nnc(-c3ccc(Cl)cc3)c3ccccc23)cc1` has a cell death of 94.2% (MCF7; cell growth or viability, MTT; 5 µM).
